Experimental data from different studies.
Each numbered part is a random draw from the data of one study; scales do not carry over between parts.
Sequence of UniProt Q92918 (whole entry, looked up): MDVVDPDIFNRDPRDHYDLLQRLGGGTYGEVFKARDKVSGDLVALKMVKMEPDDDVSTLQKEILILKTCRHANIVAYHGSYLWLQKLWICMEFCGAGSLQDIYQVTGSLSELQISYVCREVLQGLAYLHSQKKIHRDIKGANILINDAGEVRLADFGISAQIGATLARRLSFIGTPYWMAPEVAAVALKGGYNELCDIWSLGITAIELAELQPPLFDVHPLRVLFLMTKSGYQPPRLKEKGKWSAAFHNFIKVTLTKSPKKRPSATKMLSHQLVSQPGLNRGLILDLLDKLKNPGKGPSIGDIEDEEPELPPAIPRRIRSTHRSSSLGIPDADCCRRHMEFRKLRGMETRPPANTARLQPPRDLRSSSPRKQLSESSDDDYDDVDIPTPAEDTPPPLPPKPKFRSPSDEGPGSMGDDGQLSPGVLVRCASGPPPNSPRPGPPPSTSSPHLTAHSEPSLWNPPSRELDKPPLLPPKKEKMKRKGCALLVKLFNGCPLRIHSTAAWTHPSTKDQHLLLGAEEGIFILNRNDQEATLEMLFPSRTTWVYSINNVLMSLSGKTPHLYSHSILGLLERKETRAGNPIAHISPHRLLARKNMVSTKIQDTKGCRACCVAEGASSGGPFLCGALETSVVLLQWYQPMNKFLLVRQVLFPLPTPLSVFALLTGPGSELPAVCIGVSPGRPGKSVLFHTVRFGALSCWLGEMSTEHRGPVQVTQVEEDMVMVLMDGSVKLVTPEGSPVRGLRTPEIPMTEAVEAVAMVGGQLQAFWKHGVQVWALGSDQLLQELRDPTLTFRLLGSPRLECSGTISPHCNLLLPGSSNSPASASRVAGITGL
Sequence of UniProt Q02763 (whole entry, looked up): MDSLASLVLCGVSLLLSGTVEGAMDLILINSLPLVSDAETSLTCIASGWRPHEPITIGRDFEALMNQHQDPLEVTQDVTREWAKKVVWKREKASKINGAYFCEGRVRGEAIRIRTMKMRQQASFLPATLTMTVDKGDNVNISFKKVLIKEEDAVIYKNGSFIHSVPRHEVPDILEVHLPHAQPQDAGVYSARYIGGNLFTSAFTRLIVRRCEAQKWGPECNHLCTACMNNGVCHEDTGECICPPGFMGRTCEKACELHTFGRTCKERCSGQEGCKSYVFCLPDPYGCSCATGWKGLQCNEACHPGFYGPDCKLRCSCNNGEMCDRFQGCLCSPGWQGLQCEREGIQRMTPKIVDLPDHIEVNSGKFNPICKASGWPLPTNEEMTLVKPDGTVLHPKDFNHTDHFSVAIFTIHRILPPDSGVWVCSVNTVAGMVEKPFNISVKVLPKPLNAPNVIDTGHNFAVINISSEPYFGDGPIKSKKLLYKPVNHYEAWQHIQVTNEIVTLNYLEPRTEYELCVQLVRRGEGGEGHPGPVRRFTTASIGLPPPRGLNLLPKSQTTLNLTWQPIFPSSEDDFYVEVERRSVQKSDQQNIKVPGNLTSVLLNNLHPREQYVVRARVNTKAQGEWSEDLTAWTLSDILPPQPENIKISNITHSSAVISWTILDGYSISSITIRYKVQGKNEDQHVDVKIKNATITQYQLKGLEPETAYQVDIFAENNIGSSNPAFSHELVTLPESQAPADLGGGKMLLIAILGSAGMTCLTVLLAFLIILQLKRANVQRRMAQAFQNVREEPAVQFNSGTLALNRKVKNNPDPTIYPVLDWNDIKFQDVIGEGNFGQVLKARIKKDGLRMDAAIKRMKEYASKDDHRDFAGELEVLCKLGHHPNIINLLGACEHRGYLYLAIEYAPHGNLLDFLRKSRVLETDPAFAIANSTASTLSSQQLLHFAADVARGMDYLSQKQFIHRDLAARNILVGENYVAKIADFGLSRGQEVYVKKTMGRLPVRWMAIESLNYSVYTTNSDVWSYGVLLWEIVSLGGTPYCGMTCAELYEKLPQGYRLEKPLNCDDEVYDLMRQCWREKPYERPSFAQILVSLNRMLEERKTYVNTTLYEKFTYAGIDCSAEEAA
Sequence of UniProt Q8TDR2 (whole entry, looked up): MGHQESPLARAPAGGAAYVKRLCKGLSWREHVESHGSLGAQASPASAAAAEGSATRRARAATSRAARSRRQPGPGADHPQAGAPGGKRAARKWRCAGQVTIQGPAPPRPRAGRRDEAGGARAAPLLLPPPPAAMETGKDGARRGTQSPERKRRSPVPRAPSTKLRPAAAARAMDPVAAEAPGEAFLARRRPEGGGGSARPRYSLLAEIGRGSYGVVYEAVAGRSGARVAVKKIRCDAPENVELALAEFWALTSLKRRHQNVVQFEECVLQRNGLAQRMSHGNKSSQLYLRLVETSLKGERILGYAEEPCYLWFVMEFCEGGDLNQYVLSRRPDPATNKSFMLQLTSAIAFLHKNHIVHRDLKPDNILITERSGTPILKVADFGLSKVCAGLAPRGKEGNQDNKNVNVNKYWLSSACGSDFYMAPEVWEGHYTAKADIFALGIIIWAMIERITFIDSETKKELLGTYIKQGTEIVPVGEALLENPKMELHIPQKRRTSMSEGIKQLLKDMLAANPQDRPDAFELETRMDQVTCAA
Sequence of UniProt P42679 (whole entry, looked up): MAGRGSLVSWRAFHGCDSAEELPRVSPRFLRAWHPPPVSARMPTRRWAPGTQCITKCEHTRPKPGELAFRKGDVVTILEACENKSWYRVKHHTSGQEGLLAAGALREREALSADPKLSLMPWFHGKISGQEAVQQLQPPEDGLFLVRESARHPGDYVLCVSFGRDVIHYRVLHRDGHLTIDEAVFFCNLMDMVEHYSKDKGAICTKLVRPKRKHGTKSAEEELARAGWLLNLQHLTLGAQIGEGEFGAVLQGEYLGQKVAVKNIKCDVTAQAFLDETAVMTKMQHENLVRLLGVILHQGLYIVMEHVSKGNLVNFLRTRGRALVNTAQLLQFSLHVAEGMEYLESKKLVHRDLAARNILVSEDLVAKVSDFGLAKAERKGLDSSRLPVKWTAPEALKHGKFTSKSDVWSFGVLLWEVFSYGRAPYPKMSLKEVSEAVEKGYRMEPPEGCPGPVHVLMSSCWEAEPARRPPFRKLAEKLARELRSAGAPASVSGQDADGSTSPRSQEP
Sequence of UniProt Q6P2M8 (whole entry, looked up): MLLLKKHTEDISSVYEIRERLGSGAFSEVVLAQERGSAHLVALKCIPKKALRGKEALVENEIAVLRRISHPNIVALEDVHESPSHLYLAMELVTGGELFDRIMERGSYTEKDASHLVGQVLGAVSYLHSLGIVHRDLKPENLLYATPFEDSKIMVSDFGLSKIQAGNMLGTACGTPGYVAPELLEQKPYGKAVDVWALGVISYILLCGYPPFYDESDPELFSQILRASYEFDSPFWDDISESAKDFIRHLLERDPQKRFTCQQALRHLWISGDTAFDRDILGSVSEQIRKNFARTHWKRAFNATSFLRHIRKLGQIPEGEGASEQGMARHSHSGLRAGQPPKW
Sequence of UniProt P11309 (whole entry, looked up): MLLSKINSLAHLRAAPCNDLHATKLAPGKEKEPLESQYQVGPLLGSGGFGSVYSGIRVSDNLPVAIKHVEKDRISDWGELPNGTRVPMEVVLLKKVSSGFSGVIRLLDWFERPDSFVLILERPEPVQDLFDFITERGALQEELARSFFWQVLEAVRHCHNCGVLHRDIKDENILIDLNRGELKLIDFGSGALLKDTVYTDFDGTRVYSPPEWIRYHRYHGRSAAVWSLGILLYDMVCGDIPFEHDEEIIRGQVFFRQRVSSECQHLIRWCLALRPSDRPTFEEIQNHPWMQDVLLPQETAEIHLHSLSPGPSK

Set 1 — organism: Sarcocystis neurona; effect on: parasite growth; tested at: 10 µM; setting: secondary screen
SMILES | inhibition [%]
COc1cccc2c1C(=O)c1c(O)c3c(c(O)c1C2=O)C[C@@](O)(C(=O)CO)C[C@@H]3O[C@H]1C[C@H](N)[C@@H](O)[C@H](C)O1 | 68.3
CCCN1CCCC[C@H]1C(=O)Nc1c(C)cccc1C | -49.5
Cc1cccc(CN2CCN(C(c3ccccc3)c3ccc(Cl)cc3)CC2)c1.Cl.Cl (stereo not shown) | -52.2
Cc1nc2n(c(=O)c1CCN1CCC(c3noc4cc(F)ccc34)CC1)CCCC2 | -18.4

Set 2 — method: RNA Bind-n-Seq; form: RNA; medium: in vitro; tested at: 100 nM; reference: input RNA pool; direction: higher = stronger binding
Target: RING finger protein unkempt homolog, zinc fingers 1-6, SBP tag (UNK, Homo sapiens, UniProt Q9C0B0, residues 30-357)
Sequence of UniProt Q9C0B0 (30-357, looked up): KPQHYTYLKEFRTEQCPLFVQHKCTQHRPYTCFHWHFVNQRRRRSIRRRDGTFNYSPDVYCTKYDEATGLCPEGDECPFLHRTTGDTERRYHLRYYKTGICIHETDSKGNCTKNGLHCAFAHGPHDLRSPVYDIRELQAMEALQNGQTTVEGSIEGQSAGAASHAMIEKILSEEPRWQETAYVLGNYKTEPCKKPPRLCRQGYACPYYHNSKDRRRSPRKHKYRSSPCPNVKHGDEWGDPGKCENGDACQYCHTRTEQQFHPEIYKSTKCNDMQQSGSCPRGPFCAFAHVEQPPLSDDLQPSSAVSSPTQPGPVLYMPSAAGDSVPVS
Setting: RNA with constant flanks, vertebrate orthologous sites, ends assumed
Constant ends, left off below: GGGAGUUCUACAGUCCGACGAUC … CAACAGAGGAUUGAGCAUCA
Oligonucleotide | bound/input enrichment [ratio]
UUCAUUACUUGAGCCGAGUGGAGGUGACCGAGUUUGAAGACAUCAAGUCGGGCUACAGAAUAGAUUUUUAUUGUAAAGAUGCCCGCGUACGUACAACAUGGAGGUGCUCUGUCUUGUAUU | 0.367
GACGUCUGCUCUAUUACAAAGAUAAGAAACGGUCCCACAAAUUAAAAAAAUAAUAAUAAAUGGCUAUUUUUGAAAUUCAAAUAUUUAAAUUUUGUAAAUCAGCUGCUUAGGACACCAUGU | 0.27
UUAGGUUUUUGUGGGGGGUGGGGAAAGGGAGGCUGGUGUCAGCAUUAUGAAGUAUUCCAAAGGUUUUCUCUCUUUUUCUUUCUUUUUUUGUGUUUUGUUUUCCCUUUUAAUUGGAUGUAC | 1.69
CAUGUCCUUGUAACUGUGAUAUUUAAAAUAUCCACAGUAUUCACCUUUUCCAAAUGAUUCUAGUAAUGGUCUAGAAAUAUCUUUCUCUUACCUGUUAUUUAUCAAUUUUUCCCAGUAUUU | 0.526
AUUUUCAGUCUCUUCUCCCUUUUCCUGAUUUUAAAAGUCCUUCCCCCCCGCCCUUUUUAGGCAUUUGUAGUAACAUUAGCAGAAAGAUUUAAUUUGAGCAACUUUGAUUCUUAAAACAAA | 0.885
GUUAGGUCAUGACCCAUAUAGGUUAGGUCAUGAUGCUUAUAGAUUAGGACAGGACCCUUACAGAUUAGGUCAUGAUCCCUACAGACUAACUCCUGAUCCCUAUAGGAUGUCACCUAGACC | 0.294
UACAAAUGUGUAUCGAAUGCUGGGUGUAACAUUAAACCAUCAUUUAGAAUAGAUGUCGAUUUGUUAUAAUUAAGCUACAAAUAGGUUUCUUUAAACCAGAGAUGCACUGCCCUUGUCUCA | 0.422
AGGAAGGAGAAAGAACUGAACAGAUUCUUCCUCCCCCGAAUAAAACCAAAAGGAUUUGGUUUGGGUUCUCUCUUGGAAAACAAAGAUGGCCUUUUCUCUUAAUUGUGUAACUAUCACUGC | 0.409

Set 3 — effect on: cell-free assay; method: competition with immobilised ligand; tested at: 1 µM
SMILES: Cc1c(NC(=O)c2cc(C(N)=O)nc3cc(F)ccc23)c(C(F)(F)F)nn1Cc1ccc(C(C)(C)C)cc1
target | remaining binding
Epidermal growth factor receptor (EGFR, Homo sapiens, UniProt P00533, G719C) | 71%
Serine/threonine-protein kinase pim-1 (PIM1, Homo sapiens, UniProt P11309) | 100%
Calcium/calmodulin-dependent protein kinase type 1B (PNCK, Homo sapiens, UniProt Q6P2M8) | 100%
Mitogen-activated protein kinase kinase kinase kinase 3 (MAP4K3, Homo sapiens, UniProt Q8IVH8) | 98%
Phosphatidylinositol 4-phosphate 5-kinase type-1 alpha (PIP5K1A, Homo sapiens, UniProt Q99755) | 100%
Mitogen-activated protein kinase kinase kinase kinase 1 (MAP4K1, Homo sapiens, UniProt Q92918) | 100%
Mitotic checkpoint serine/threonine-protein kinase BUB1 (BUB1, Homo sapiens, UniProt O43683) | 100%
Receptor-type tyrosine-protein kinase FLT3 (FLT3, Homo sapiens, UniProt P36888, N841I) | 52%
Serine/threonine-protein kinase 35 (STK35, Homo sapiens, UniProt Q8TDR2) | 100%
Casein kinase I isoform gamma-1 (CSNK1G1, Homo sapiens, UniProt Q9HCP0) | 100%
Angiopoietin-1 receptor (TEK, Homo sapiens, UniProt Q02763) | 94%
Vascular endothelial growth factor receptor 3 (FLT4, Homo sapiens, UniProt P35916) | 91%
Megakaryocyte-associated tyrosine-protein kinase (MATK, Homo sapiens, UniProt P42679) | 66%
cAMP-dependent protein kinase catalytic subunit alpha (PRKACA, Homo sapiens, UniProt P17612) | 87%
cAMP-dependent protein kinase catalytic subunit beta (PRKACB, Homo sapiens, UniProt P22694) | 100%
Tyrosine-protein kinase SYK (SYK, Homo sapiens, UniProt P43405) | 90%
Phosphatidylinositol 4,5-bisphosphate 3-kinase catalytic subunit alpha isoform (PIK3CA, Homo sapiens, UniProt P42336, E545K) | 100%

Set 4 — method: protein-binding microarray; form: hairpin DNA; medium: in vitro; tested at: not given; reference: not given; direction: higher = stronger binding; constant ends, left off below: GAGGCC … GGCCTCACACTCTTTCCCTACACG
Target: Signal transducer and activator of transcription 1-alpha/beta, full length (STAT1, Homo sapiens, UniProt P42224, residues 1-750)
Sequence of UniProt P42224 (whole entry, looked up): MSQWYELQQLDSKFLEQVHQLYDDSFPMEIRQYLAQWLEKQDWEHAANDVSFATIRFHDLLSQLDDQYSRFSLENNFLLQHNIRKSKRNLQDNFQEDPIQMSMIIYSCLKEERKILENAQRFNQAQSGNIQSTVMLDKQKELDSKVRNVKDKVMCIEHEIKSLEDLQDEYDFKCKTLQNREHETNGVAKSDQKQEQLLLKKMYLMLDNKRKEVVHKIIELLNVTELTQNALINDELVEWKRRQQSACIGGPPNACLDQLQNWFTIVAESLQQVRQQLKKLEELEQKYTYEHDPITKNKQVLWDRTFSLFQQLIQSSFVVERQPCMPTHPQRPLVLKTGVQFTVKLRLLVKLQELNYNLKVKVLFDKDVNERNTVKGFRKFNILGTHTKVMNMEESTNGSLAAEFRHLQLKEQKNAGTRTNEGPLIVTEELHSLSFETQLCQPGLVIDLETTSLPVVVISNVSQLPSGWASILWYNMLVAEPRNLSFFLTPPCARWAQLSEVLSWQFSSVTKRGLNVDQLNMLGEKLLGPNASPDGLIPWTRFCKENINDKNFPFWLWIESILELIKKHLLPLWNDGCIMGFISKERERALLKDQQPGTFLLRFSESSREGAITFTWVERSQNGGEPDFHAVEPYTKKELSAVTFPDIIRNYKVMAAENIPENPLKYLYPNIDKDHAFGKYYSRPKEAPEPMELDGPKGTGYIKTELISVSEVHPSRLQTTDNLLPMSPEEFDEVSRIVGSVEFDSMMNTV
Setting: whole hairpin DNA, median over replicate spots
Oligonucleotide | median fluorescence [a.u.]
TTTCCCAGAAGCCTCCTGGCTTCTGGGAAA (5mC at 12) | 1500
TTCACCGGAAGCCTCCTGGCTTCCGGTGAA | 1210
TTTCCCGGCAGCCTCCTGGCTGCCGGGAAA | 2730
TTTCCCGGAAGCCTCCTGGCTTCCGGGAAA (5mC at 29) | 11300
TTTCCCGGCTGCCTCCTGGCAGCCGGGAAA (5mC at 15) | 952
TTTCGCGGAAGCCTCCTGGCTTCCGCGAAA | 3360
TTTCCCGCTAGCCTCCTGGCTAGCGGGAAA (5mC at 14) | 1070
GTTCCCGGAAGCCTCCTGGCTTCCGGGAAC (5mC at 36) | 7070

Excerpt of the above (set 4):
Oligonucleotide | median fluorescence [a.u.]
GTTCCCGGAAGCCTCCTGGCTTCCGGGAAC (5mC at 36) | 7070
TTTCCCGGCTGCCTCCTGGCAGCCGGGAAA (5mC at 15) | 952
TTTCGCGGAAGCCTCCTGGCTTCCGCGAAA | 3360
TTTCCCGGAAGCCTCCTGGCTTCCGGGAAA (5mC at 29) | 11300
TTTCCCGCTAGCCTCCTGGCTAGCGGGAAA (5mC at 14) | 1070
